# Published values of several laboratories.
# Each line is one published result; not all experiments were run side by side. ± gives the spread as reported.
# Chain of UniProt P08684 (whole entry, looked up): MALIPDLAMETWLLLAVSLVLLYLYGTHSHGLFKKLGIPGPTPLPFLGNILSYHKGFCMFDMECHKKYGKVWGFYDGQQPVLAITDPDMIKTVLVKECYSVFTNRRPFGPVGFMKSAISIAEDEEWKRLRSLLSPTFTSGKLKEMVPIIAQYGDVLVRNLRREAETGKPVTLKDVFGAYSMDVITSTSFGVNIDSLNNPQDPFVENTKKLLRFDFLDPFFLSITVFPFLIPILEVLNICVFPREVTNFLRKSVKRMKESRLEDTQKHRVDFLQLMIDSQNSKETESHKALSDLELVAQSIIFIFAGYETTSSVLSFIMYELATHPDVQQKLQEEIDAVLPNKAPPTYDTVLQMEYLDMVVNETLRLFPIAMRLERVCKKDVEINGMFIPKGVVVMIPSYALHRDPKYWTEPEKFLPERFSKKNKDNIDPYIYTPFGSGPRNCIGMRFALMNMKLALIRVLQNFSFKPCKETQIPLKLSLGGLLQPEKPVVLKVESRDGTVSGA
Structure (SMILES),target,test,system,setting,scale,endpoint,value
NC(=S)N/N=C/c1ccccn1,Mn2+ complex,potentiometric titration,,25 °C,,log stability constant,17.6
C=CC(=O)Nc1cc(Nc2nccc(-c3cn(C)c4ccccc34)n2)c(OCC(F)(F)F)nc1N(C)CCN(C)C,"Cytochrome P450 3A4 (CYP3A4, Homo sapiens, UniProt P08684)","enzyme activity, inhibitor","human, liver microsomes","0.1 µM, testosterone probe",,activity vs control,100%
NC(=O)N/N=C/c1ccccn1,Mn2+ complex,potentiometric titration,,25 °C,,log stability constant,16.1
N#CCc1cccc(Cl)c1-c1ccc2[nH][11c](=O)[nH]c2c1,P-glycoprotein and Bcrp,ex vivo brain uptake,mouse,"injection, 30 min, added: tariquidar",relative to: without tariquidar,brain uptake increase,204%
COc1cccc2c1C(=O)c1c(O)c3c(c(O)c1C2=O)CC(O)(C(=O)CO)CC3OC1CC(NC(=O)C[C@H](N)C(=O)O)C(O)C(C)O1 (some centres unmarked),P-glycoprotein (MDR1),,MDCK-MDR1,"50 µg/mL, 60 min",,Papp (A-B),0.67 ± 0.045 ×10⁻⁶ cm/s
[64Cu+2].c1cnc(CNCc2ccc(CN3CCCN4CCNCCCN(CC4)CC3)cc2)nc1,CXCR4,,"NOD/SCID mouse, U87 and U87-stb-CXCR4 xenografts, muscle","iv, 120 min, ex vivo",,tissue uptake,0.34 ± 0.03 %ID/g
COc1ccc2cc(-c3ccc(-c4ccc(C)cn4)nc3)oc2c1,zinc(II),,neutral aqueous solution,zinc saturation,"relative to: zinc-free ligand, positive = red shift",emission wavelength shift,46 nm
O=C(O)[C@@H]1C[C@@H](O)CN1C(=O)[C@@H]1CCCN1,iron(III) ion,"complex formation, from log β",aqueous 0.15 M NaCl,"40 °C, MA2 complex species",,−ΔG,33.9 kcal/mol

# A few entries again:
Structure (SMILES),target,test,system,setting,scale,endpoint,value
C=CC(=O)Nc1cc(Nc2nccc(-c3cn(C)c4ccccc34)n2)c(OCC(F)(F)F)nc1N(C)CCN(C)C,"Cytochrome P450 3A4 (CYP3A4, Homo sapiens, UniProt P08684)","enzyme activity, inhibitor","human, liver microsomes","0.1 µM, testosterone probe",,activity vs control,100%
